Published values gathered from unrelated publications.
Each line is one published result; not all experiments were run side by side. ± gives the spread as reported.
CYP3A4: Cytochrome P450 3A4 (CYP3A4, Homo sapiens, UniProt P08684)
Chain of UniProt P08684 (whole entry, looked up): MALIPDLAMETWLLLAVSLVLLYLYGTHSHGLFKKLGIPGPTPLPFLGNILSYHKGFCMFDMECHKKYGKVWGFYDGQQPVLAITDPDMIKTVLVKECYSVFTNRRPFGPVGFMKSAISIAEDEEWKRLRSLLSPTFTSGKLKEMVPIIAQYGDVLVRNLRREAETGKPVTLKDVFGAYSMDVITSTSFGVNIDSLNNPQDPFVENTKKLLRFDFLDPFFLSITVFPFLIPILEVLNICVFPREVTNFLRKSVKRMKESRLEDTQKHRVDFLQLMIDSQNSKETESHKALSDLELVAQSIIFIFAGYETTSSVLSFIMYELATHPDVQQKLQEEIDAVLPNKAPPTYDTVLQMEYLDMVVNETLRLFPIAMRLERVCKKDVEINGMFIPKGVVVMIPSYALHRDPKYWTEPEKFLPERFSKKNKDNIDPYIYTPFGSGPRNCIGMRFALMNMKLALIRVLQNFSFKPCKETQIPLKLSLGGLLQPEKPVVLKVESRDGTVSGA
AHR: Aryl hydrocarbon receptor (AHR, Homo sapiens, UniProt P35869)
Chain of UniProt P35869 (whole entry, looked up): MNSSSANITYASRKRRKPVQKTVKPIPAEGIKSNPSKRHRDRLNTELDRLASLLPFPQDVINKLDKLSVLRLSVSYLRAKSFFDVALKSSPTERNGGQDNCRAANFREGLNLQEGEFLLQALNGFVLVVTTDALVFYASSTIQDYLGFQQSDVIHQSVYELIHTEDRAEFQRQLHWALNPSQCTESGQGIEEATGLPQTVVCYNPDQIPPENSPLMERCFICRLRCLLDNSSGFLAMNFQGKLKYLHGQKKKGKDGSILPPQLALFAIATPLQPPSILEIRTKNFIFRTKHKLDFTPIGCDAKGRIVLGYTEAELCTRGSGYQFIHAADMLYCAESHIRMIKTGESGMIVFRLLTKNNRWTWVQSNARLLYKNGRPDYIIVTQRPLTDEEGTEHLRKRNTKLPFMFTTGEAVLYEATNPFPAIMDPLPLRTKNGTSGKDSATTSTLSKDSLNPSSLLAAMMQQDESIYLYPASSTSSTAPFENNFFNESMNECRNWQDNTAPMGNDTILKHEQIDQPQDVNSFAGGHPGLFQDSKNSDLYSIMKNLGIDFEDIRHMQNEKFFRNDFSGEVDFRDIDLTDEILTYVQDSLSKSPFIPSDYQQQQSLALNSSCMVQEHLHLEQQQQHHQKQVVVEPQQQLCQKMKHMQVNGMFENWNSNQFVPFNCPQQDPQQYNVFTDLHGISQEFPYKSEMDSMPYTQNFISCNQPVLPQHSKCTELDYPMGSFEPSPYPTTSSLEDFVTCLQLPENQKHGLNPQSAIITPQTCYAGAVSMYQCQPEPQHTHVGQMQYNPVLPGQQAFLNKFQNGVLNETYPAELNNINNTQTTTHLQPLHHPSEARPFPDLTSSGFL
SLC22A7: Solute carrier family 22 member 7 (SLC22A7, Homo sapiens, UniProt Q9Y694)
Chain of UniProt Q9Y694 (whole entry, looked up): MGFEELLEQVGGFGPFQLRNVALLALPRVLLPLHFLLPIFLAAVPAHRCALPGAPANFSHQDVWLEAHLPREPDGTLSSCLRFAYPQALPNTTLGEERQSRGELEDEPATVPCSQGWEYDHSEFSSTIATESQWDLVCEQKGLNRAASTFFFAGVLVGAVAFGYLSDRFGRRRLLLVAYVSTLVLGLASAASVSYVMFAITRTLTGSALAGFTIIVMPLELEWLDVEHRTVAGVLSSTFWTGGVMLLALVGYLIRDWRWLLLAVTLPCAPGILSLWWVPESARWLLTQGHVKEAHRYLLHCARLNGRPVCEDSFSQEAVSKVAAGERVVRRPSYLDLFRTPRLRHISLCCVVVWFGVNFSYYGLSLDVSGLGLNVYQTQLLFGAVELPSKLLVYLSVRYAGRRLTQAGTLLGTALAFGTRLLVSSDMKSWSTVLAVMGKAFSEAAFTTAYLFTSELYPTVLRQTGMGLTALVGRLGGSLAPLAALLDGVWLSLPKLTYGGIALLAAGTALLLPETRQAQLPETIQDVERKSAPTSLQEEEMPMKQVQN
SLC22A6: Solute carrier family 22 member 6 (SLC22A6, Homo sapiens, UniProt Q4U2R8)
Chain of UniProt Q4U2R8 (whole entry, looked up): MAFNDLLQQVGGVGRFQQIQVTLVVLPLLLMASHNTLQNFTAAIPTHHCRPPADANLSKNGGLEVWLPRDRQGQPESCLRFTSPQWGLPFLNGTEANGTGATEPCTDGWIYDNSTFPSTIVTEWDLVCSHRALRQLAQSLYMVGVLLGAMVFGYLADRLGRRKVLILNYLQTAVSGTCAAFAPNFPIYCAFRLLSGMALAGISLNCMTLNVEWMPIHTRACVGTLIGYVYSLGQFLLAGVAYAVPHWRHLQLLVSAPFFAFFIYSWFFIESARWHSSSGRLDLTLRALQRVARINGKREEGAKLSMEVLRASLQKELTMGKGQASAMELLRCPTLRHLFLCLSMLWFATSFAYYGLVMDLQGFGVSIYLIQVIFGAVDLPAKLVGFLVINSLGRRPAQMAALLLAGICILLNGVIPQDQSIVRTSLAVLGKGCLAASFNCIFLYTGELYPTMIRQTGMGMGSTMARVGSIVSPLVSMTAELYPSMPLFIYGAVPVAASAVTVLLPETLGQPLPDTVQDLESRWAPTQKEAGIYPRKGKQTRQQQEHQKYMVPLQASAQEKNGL
CYP2B6: Cytochrome P450 2B6 (CYP2B6, Homo sapiens, UniProt P20813)
Chain of UniProt P20813 (whole entry, looked up): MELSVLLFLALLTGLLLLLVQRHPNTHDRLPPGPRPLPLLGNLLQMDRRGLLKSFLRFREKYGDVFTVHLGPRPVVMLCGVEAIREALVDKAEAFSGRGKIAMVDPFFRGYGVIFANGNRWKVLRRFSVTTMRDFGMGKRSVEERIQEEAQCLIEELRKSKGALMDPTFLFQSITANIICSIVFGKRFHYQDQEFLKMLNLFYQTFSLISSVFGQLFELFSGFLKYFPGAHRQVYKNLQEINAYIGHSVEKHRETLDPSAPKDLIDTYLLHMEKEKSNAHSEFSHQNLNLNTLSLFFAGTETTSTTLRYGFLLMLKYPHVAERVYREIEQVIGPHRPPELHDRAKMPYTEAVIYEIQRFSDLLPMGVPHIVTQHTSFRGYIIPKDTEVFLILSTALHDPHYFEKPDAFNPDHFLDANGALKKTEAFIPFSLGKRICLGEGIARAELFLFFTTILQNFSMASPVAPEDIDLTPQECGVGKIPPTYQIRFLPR
Chain of UniProt P19785 (whole entry, looked up): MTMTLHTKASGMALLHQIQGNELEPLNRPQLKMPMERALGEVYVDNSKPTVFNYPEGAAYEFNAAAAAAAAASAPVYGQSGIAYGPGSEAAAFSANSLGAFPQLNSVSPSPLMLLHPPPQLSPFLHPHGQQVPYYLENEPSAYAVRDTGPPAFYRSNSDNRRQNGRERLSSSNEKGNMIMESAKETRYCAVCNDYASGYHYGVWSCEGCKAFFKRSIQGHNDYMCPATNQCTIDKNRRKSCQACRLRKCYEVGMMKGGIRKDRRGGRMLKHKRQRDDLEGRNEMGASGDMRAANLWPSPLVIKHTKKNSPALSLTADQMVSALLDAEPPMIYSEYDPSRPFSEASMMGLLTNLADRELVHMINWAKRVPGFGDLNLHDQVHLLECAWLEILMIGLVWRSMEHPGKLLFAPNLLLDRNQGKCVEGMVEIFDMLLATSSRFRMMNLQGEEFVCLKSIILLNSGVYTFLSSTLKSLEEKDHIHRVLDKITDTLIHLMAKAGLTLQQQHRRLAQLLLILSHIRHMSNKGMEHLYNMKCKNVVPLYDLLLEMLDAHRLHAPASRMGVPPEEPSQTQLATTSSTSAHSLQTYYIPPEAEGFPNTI
Chain of UniProt O70423 (whole entry, looked up): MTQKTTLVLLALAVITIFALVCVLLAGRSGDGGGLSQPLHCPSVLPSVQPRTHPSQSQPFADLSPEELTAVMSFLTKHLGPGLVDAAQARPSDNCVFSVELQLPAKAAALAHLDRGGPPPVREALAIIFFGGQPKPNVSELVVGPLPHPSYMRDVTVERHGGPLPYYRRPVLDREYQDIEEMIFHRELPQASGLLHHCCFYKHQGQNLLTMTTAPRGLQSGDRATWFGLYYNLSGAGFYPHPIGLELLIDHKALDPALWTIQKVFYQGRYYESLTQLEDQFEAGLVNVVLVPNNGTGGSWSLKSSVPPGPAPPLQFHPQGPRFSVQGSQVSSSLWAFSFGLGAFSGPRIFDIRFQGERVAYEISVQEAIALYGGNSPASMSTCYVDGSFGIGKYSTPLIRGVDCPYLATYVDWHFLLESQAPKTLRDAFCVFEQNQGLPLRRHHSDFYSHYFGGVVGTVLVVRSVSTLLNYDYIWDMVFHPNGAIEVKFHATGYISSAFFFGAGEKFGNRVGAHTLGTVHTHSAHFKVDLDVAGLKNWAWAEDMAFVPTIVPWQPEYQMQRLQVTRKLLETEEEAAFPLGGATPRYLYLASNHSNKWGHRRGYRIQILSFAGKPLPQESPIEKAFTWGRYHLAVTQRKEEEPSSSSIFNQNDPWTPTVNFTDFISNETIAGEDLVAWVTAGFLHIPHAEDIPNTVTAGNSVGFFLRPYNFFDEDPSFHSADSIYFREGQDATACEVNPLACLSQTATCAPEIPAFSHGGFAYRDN

| SMILES | target | assay | test system | conditions | how to read | quantity | value |
| --- | --- | --- | --- | --- | --- | --- | --- |
| C=CC(=O)Nc1cc(Nc2nccc(-c3cn(C)c4ccccc34)n2)c(OCC(F)(F)F)nc1N(C)CCNC | CYP3A4 | substrate, recombinant enzyme, substrate depletion |  |  |  | fraction metabolised | 53% |
| COc1ccc2c(c1)N(C[C@H](C)CN(C)C)c1ccccc1S2 | H+/organic cation antiporter | cell uptake | hCMEC/D3 |  |  | intrinsic clearance | 205 µL/min/mg protein |
| Cc1[nH]c2ccccc2c1C(=O)c1ccccc1 | AHR | reporter gene, agonist, XRE luciferase | HepG2 | 10 µM | reference: ITE | activity at 10 µM | 7% |
| CC(C)=CCc1c(O)cc(O)c2c1O[C@H](c1ccc(O)cc1)CC2=O | human CYP2D6 |  |  | 10 µM, pH 7.4 |  | inhibition | < 10% |
| C=CCN1C[C@H](C(=O)N(CCCN(C)C)C(=O)NCC)C[C@@H]2c3cccc4[nH]cc(c34)C[C@H]21 | H+/organic cation antiporter | cell uptake | hCMEC/D3 |  |  | intrinsic clearance | 81.4 µL/min/mg protein |
| COc1ccccc1C(=O)c1c[nH]c2ccccc12 | AHR | reporter gene, agonist | HepG2 | XRE-driven luciferase | reference: ITE 10 µM | Emax | 12% |
| C[C@H](CCC(=O)NCC(=O)O)[C@H]1CC[C@H]2[C@@H]3[C@H](O)C[C@@H]4C[C@H](OS(=O)(=O)O)CC[C@]4(C)[C@H]3CC[C@]12C | SLC22A7 |  | HEK293 control cells |  |  | uptake velocity | 19.4 ± 5.3 pmol/min/mg protein |
| CCOc1ccccc1OCCN[C@H](C)Cc1ccc(OC)c(S(N)(=O)=O)c1 | H+/organic cation antiporter | cell uptake | hCMEC/D3 |  |  | intrinsic clearance | 10.1 µL/min/mg protein |
| O=C([O-])CN(CCN(CC(=O)[O-])CC(=O)[O-])CC(=O)[O-].[Fe+3] | Fe(III) | EDTA competition |  | pH 7.4 |  | log conditional stability constant | 22.2 |
| C=C(F)C(=O)N1CCN(c2nc(OC[C@@H]3CCCN3C)nc3c2CCN(c2cccc4cccc(Cl)c24)C3)C[C@@H]1CC#N | CYP3A4 |  | healthy volunteers, plasma | 200 mg, alone, geometric mean |  | AUC(0-t) | 1950 ng·h/mL |
| C=CC(=O)N1C[C@H](Nc2ncnc3[nH]ccc23)CC[C@@H]1C | CYP3A | substrate | human | oral, single dose, together with: itraconazole multiple doses |  | apparent oral clearance CL/F | 97.3 L/h |
| Cc1ncc(CO)c(C(=O)O)c1O | SLC22A7 | substrate | HEK293 control cells |  |  | uptake rate | 2.8 ± 0.3 pmol/min/mg protein |
| CCc1cc(/C(C)=N/OCc2ccc(C3CCCCC3)c(C(F)(F)F)c2)ccc1CN1CC(C(=O)O)C1 | SLC22A6 | transport, inhibitor | HEK293 transfected with SLC22A6 | up to 24.3 µM, 5 min, together with: p-aminohippuric acid 1 µM |  | maximal inhibition | -7.7% |
| CN(C)CCOC(C)(c1ccccc1)c1ccccn1 (stereo not drawn) | H+/organic cation antiporter | cell uptake | hCMEC/D3 |  |  | intrinsic clearance | 20.1 µL/min/mg protein |
| N#C[C@H](C[C@@H]1CCCNC1=O)NC(=O)[C@H](CC1CC1)NC(=O)c1cc2cccc(Cl)c2[nH]1 | CYP2B6 | NADPH metabolic stability |  | 2 µM, pH 7.4, 37 °C, 100 pmol/mL enzyme |  | half-life | > 2.13 h |
| CCCCC1=NC2(CCCC2)C(=O)N1Cc1ccc(-c2ccccc2S(=O)(=O)Nc2noc(C)c2C)c(COCC)c1 | CYP3A4 | substrate | human liver microsomes |  |  | intrinsic clearance | 0.497 µL/min/pmol |
| NCc1cc2c(cc1F)C(=O)N(C1CCC(=O)NC1=O)C2 (stereo not drawn) | Amine oxidase [copper-containing] 3 (Mus musculus, UniProt O70423) | substrate, LC-MS/MS | recombinant mouse enzyme | 10 µM, 0 h, pH 7.4, together with: inhibitor 0.25 µM |  | concentration | 8.4 µM |

| SMILES | target | assay | test system | conditions | how to read | quantity | value |
| --- | --- | --- | --- | --- | --- | --- | --- |
| COCCc1ccc(OCC(O)CNC(C)C)cc1 (stereo not drawn) | H+/organic cation antiporter | cell uptake | hCMEC/D3 |  |  | intrinsic clearance | 10.3 µL/min/mg protein |
| COC(=O)c1cccc(C(=O)c2c[nH]c3cccc(Cl)c23)n1 | AHR | reporter gene, agonist, XRE luciferase | HepG2 | 10 µM | reference: ITE | activity at 10 µM | 35% |
| NC(=O)C1(N2CCCCC2)CCN(CCCC(=O)c2ccc(F)cc2)CC1 | H+/organic cation antiporter | cell uptake | hCMEC/D3 |  |  | intrinsic clearance | 26.6 µL/min/mg protein |
| C[C@H]1CN(C2COC2)CCN1c1ccc(Nc2cc(-c3ccnc(N4CCn5c(cc6c5CC(C)(C)C6)C4=O)c3CO)cn(C)c2=O)nc1 | human CYP2D6 |  | human liver microsomes | 1 µM, 60 min, pH 7.4, together with: quinidine 1 µM, NADPH | reference: 0 min | remaining compound | 56.9 ± 4.1% |
| Oc1ccc([C@@H]2Oc3ccc(O)cc3[C@@H]3CCC[C@@H]32)cc1 | Estrogen receptor (Mus musculus, UniProt P19785) | agonist | female immature mouse | oral, 4 days |  | uterotrophic effective dose | 100 mg/kg |
| Cc1cc(Nc2ncnc3ccc(NC4=NC(C)(C)CO4)cc23)ccc1Oc1ccn2ncnc2c1 | CYP3A4 |  | human, plasma | oral, 300 mg single dose, day 1, compound alone |  | half-life (arithmetic mean) | 7.87 h |
| CCCN1CCCC[C@H]1C(=O)Nc1c(C)cccc1C | H+/organic cation antiporter | cell uptake | hCMEC/D3 |  |  | intrinsic clearance | 4.4 µL/min/mg protein |
| C=CC(=O)N(C)CCOc1c(N)ncnc1-c1cc(F)cc(NC(=O)c2ccc(C3CC3)cc2F)c1C | CYP2B6 |  | recombinant human CYP |  |  | fraction metabolised by CYP | 0.3% |
| Nc1c(CC(=O)O)cccc1C(=O)c1ccc(Br)cc1 | OATP |  | cynomolgus monkey hepatocytes | 37 °C, 10% monkey serum, together with: 200 µM rifamycin SV |  | uptake clearance | 7.1 µL/min/10⁶ cells |
| CC(C)=CCc1c(O)cc2c(c1O)C(=O)C[C@@H](c1ccc(O)cc1)O2 | human CYP2D6 |  |  | 10 µM, pH 7.4 |  | inhibition | < 10% |
| NC/C(=C\F)COc1cccc(Cn2c(=S)[nH]c(=O)c3[nH]cnc32)c1 | SLC22A6 | transport, inhibitor | CHO cells expressing SLC22A6 | 30 µM, together with: CF substrate |  | inhibition | < 50% |
| COC(=O)c1ccc(C(=O)c2c[nH]c3ccccc23)cc1 | AHR | reporter gene, agonist, XRE luciferase | HepG2 | 10 µM | reference: ITE | activity at 10 µM | 45% |
| CC[C@H]1[C@@H](O)[C@@H]2[C@H](CC[C@]3(C)[C@@H]([C@H](C)CCNC(=O)NS(=O)(=O)c4ccc(C(C)(C)C)cc4)CC[C@@H]23)[C@@]2(C)CC[C@@H](O)C[C@@H]12 | CYP3A4 | substrate | human, plasma | 10 mg, alone, study day 1 |  | AUC(0-t) mean | 390 ng·h/mL |
| C[S+](C)[O-] | human HLA-A*24:02 peptide complex | nanoDSF |  | 10% (v/v), pH 7.6, ramp 1.0 °C/min |  | melting temperature | 56.1 ± 0.1 °C |
| Cc1nc2n(c(=O)c1CCN1CCC(c3noc4cc(F)ccc34)CC1)CCCC2 | H+/organic cation antiporter | cell uptake | hCMEC/D3 |  |  | intrinsic clearance | 26.3 µL/min/mg protein |
| CCS(=O)(=O)N1CC(CC#N)(n2cc(-c3ncnc4[nH]ccc34)cn2)C1 | SLC22A6 | substrate transport, inhibitor | cells expressing human OAT1 | Iu 0.072 µM, together with: 14C-PAH 2 µM |  | Iu/IC50 ratio | < 0.001 |

Repeated from above:
| SMILES | target | assay | test system | conditions | how to read | quantity | value |
| --- | --- | --- | --- | --- | --- | --- | --- |
| Oc1ccc([C@@H]2Oc3ccc(O)cc3[C@@H]3CCC[C@@H]32)cc1 | Estrogen receptor (Mus musculus, UniProt P19785) | agonist | female immature mouse | oral, 4 days |  | uterotrophic effective dose | 100 mg/kg |
| Cc1cc(Nc2ncnc3ccc(NC4=NC(C)(C)CO4)cc23)ccc1Oc1ccn2ncnc2c1 | CYP3A4 |  | human, plasma | oral, 300 mg single dose, day 1, compound alone |  | half-life (arithmetic mean) | 7.87 h |
| CCCN1CCCC[C@H]1C(=O)Nc1c(C)cccc1C | H+/organic cation antiporter | cell uptake | hCMEC/D3 |  |  | intrinsic clearance | 4.4 µL/min/mg protein |
| C=CC(=O)N(C)CCOc1c(N)ncnc1-c1cc(F)cc(NC(=O)c2ccc(C3CC3)cc2F)c1C | CYP2B6 |  | recombinant human CYP |  |  | fraction metabolised by CYP | 0.3% |
